Measured values collected from several papers.
Numbered parts are unrelated; each lists some results of a single study. ± marks the error that the study gave.

Study 1
Target: HIV-1 TAR RNA
Tested at: concentration not given
Temperature: 25 °C
| SMILES | binding enthalpy ΔH° |
| --- | --- |
| CC(=O)NCCN(CC(=O)NCCN(CC(=O)NCCN(CC(=O)NCCC(N)=O)C(=O)C[C@@H](N)CCCNC(=N)N)C(=O)C[C@@H](N)CCCNC(=N)N)C(=O)C[C@@H](N)Cc1ccccc1 | -10.8 ± 0.598 kcal/mol |
| CC(=O)NCCN(CC(=O)NCCN(CC(=O)NCCN(CC(=O)NCCC(N)=O)C(=O)[C@@H](N)CCCNC(=N)N)C(=O)[C@@H](N)Cc1ccccc1)C(=O)[C@@H](N)Cc1ccccc1 | -12.36 ± 0.12 kcal/mol |
| CC(=O)NCCN(CC(=O)NCCN(CC(=O)NCCN(CC(=O)NCCC(N)=O)C(=O)C[C@@H](N)Cc1ccccc1)C(=O)C[C@@H](N)Cc1ccccc1)C(=O)C[C@@H](N)CCCNC(=N)N | -6.43 ± 0.191 kcal/mol |

Study 2
SMILES: CCCOC(=O)N1c2cc(CNC)ccc2[C@H](NC(=O)C(=O)Nc2ccc(Cl)c(F)c2)[C@H]1CNC(=N)N
Cell line: TZM-bl
| organism | read-out | method | strain | IC80 |
| --- | --- | --- | --- | --- |
| Human immunodeficiency virus 1 | viral infection | Env pseudovirus | 6535.3 clade B | 75 nM |
| HIV-1 | pseudovirus infection | Env pseudovirus neutralisation | clade A | 6830 nM |
| Human immunodeficiency virus 1 | viral infection | Env pseudovirus | ZM53M.PB12 clade C | 7980 nM |
| Human immunodeficiency virus 1 | viral infection | Env pseudovirus | HIV-0013095-2.11 clade C | 366 nM |
| Human immunodeficiency virus 1 | viral infection | Env pseudovirus | X1632_S2_B10 clade G | 2890 nM |

Further values, each from its own experiment
| SMILES | target or system | test | test system | setting | endpoint | result |
| --- | --- | --- | --- | --- | --- | --- |
| F[P-](F)(F)(F)(F)F.OC(Cn1cncn1)(Cn1cc(-[c-]2cccc2)nn1)c1ccc(F)cc1F.[Co+3].c1cc[cH-]c1 (racemic) | Trichuris muris | Worminator | adult males and females | 100 µM, day 2 | motility inhibition | 28% |
| C[C@H](Nc1ncnc(N)c1C#N)c1c(-c2ccccc2)[nH]c2c(Cl)cccc2c1=O | B-cell lymphoma cell lines | cell proliferation, CellTiter-Glo |  | 72 h, highest of 23 cell lines | IC50 | > 20000 nM |

Some of these lines once more (further values, each from its own experiment):
| SMILES | target or system | test | test system | setting | endpoint | result |
| --- | --- | --- | --- | --- | --- | --- |
| F[P-](F)(F)(F)(F)F.OC(Cn1cncn1)(Cn1cc(-[c-]2cccc2)nn1)c1ccc(F)cc1F.[Co+3].c1cc[cH-]c1 (racemic) | Trichuris muris | Worminator | adult males and females | 100 µM, day 2 | motility inhibition | 28% |
| C[C@H](Nc1ncnc(N)c1C#N)c1c(-c2ccccc2)[nH]c2c(Cl)cccc2c1=O | B-cell lymphoma cell lines | cell proliferation, CellTiter-Glo |  | 72 h, highest of 23 cell lines | IC50 | > 20000 nM |
